Results from different studies.
Each numbered part is a random draw from the data of one study; scales do not carry over between parts. Positions count from the first letter of the parent shown.

Series 1 — method: aptamer microarray, sandwich; form: DNA with 2'F-ANA; sample: in vitro; tested at: 200 nM; added: Cy3 exosite-II aptamer, 400 nM; direction: higher = stronger binding; strand: GGTTGGTGTGGTTGG
Target: Prothrombin, mature alpha-thrombin (F2, Homo sapiens, UniProt P00734)
Setting: whole 15-mer aptamer, many near background
Under “mean fluorescence intensity”, `2'F-ANA at 2 3 6 7 8 9 12 13 14` is recorded as 396 a.u.
For `2'F-ANA at 1 3 5 7 12 14`, “mean fluorescence intensity” read 45.5 a.u.
`2'F-ANA at 1 3 6 9 10 11` — result for “mean fluorescence intensity”: 72.8 a.u.
`2'F-ANA at 1 4 7 10 11 12 15`: “mean fluorescence intensity” 55.7 a.u.
`2'F-ANA at 2 4 6 8 11 12 15`: “mean fluorescence intensity” 439 a.u.
`2'F-ANA at 4 5 6 7 10 12` — result for “mean fluorescence intensity”: 53.2 a.u.
`2'F-ANA at 2 5 7 8 11 13 15`: “mean fluorescence intensity” 59.6 a.u.
For `2'F-ANA at 1 7 11 13 14 15`, “mean fluorescence intensity” read 56.6 a.u.

Series 2 — method: Spec-seq; form: double-stranded DNA, one strand shown; sample: in vitro; tested at: not given; setting: whole probe, mean of replicates; baseline: not given; direction: lower = stronger binding; all sequences stand within: GAGTCGTCTCGTCAGCAC … CCGTAGAGCACTCAGGTC
Target: POU, POU domain (Salpingoeca helianthica)
Residues (chain): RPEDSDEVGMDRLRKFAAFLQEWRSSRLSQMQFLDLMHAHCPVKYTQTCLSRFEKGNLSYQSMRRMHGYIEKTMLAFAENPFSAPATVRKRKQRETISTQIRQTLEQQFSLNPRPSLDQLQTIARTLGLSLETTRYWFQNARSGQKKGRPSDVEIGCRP
For `ATTGGTAT`, “relative binding energy” read 0.926 ln ratio.
For `GGATTAAT`, “relative binding energy” read -0.167 ln ratio.
Under “relative binding energy”, `TAGTTAAT` is recorded as -0.821 ln ratio.
For `CTTATAAT`, “relative binding energy” read 0.299 ln ratio.
For `ATATTAAT`, “relative binding energy” read -0.193 ln ratio.
`AGACTAAT` — result for “relative binding energy”: 0.77 ln ratio.
For `ATCTGAAT`, “relative binding energy” read 1.08 ln ratio.
`ATGCGTCA` — result for “relative binding energy”: 1.32 ln ratio.

Series 3 — target: CCND2, cyclin fold, Cln2 fusion (human); method: yeast growth competition, sequencing; sample: yeast; setting: weak parent motif; baseline: not given; direction: higher = stronger binding
Starting sequence: viral docking peptide; KGVKRKLFAEDSS; partner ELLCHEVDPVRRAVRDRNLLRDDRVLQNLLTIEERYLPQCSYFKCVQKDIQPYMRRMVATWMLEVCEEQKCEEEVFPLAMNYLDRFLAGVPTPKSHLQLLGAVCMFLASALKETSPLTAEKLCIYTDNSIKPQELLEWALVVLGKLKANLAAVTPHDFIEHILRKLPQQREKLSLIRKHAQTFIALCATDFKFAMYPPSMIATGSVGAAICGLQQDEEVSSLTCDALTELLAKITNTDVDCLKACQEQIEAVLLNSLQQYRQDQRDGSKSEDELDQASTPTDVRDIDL
For `L7Q`, “normalised enrichment score” read 0.117.
`L7H`: “normalised enrichment score” 0.128.
`K6D` — result for “normalised enrichment score”: -0.285.
For `E10F`, “normalised enrichment score” read 0.182.

Series 4 — target: vanadate, free oxyanion; method: microfluidic competitive inhibition; sample: in vitro, cell-free expressed; tested at: not given; direction: lower = stronger binding
Setting: derived from inhibition constants, unchanged parent 676 nM
Starting sequence: PafA, mature enzyme, eGFP fusion (Elizabethkingia meningoseptica, UniProt Q9KJX5); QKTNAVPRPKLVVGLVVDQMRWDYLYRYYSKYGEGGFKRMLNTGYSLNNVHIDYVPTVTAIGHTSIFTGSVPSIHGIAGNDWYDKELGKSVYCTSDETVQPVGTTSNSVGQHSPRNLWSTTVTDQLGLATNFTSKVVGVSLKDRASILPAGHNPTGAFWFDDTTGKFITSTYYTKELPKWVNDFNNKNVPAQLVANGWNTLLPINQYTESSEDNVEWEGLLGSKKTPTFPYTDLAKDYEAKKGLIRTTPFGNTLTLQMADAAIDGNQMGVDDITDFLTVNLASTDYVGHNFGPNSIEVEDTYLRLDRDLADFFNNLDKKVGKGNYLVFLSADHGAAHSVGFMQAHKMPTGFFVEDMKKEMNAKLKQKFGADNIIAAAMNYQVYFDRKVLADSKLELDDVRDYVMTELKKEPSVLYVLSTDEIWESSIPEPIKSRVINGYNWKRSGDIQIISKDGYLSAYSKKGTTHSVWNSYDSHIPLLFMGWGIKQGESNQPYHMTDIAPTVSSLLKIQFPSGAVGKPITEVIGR
`E395G` — result for “oxyanion analog dissociation constant”: 695 nM.
Under “oxyanion analog dissociation constant”, `Y207G` is recorded as 660 nM.
Under “oxyanion analog dissociation constant”, `I520V` is recorded as 770 nM.
Under “oxyanion analog dissociation constant”, `P430V` is recorded as 661 nM.
Under “oxyanion analog dissociation constant”, `I373G` is recorded as 525 nM.
`E239V`: “oxyanion analog dissociation constant” 534 nM.
`N182V` — result for “oxyanion analog dissociation constant”: 648 nM.
`N372G`: “oxyanion analog dissociation constant” 659 nM.
Under “oxyanion analog dissociation constant”, `S444G` is recorded as 517 nM.
For `A150V`, “oxyanion analog dissociation constant” read 624 nM.
`A390G` — result for “oxyanion analog dissociation constant”: 1.3 µM.
For `V382A`, “oxyanion analog dissociation constant” read 770 nM.
Under “oxyanion analog dissociation constant”, `L202G` is recorded as 530 nM.
`N314V`: “oxyanion analog dissociation constant” 757 nM.
For `L201V`, “oxyanion analog dissociation constant” read 620 nM.
`P493G`: “oxyanion analog dissociation constant” 693 nM.
`P149V`: “oxyanion analog dissociation constant” 3.47 µM.
`E522G` — result for “oxyanion analog dissociation constant”: 589 nM.
`Y173V` — result for “oxyanion analog dissociation constant”: 798 nM.
For `D237V`, “oxyanion analog dissociation constant” read 489 nM.
For `K367V`, “oxyanion analog dissociation constant” read 763 nM.
Under “oxyanion analog dissociation constant”, `E176G` is recorded as 713 nM.
Under “oxyanion analog dissociation constant”, `D453V` is recorded as 491 nM.
Under “oxyanion analog dissociation constant”, `K89V` is recorded as 598 nM.
`T64G` — result for “oxyanion analog dissociation constant”: 1.32 µM.

Series 5 — target: OGT, full length, His-tagged (human); method: phage display, sequencing; sample: in vitro; tested at: 1 µg OGT; baseline: input library; direction: higher = stronger binding; starting sequence: peptide; TAPFYPPAYQIQVFK
Setting: single substitutions, 15-mer displayed peptide, unchanged parent 19.6
The fold enrichment of `TAPFYPPAKQIQVFK [Y9K]` is reported as 0.484 fold.
With `TAPFYPPANQIQVFK [Y9N]` the fold enrichment was 0.627 fold.
For `TAPFYPPAYQHQVFK [I11H]`, the fold enrichment was 0.918 fold.
The fold enrichment of `TAMFYPPAYQIQVFK [P3M]` is reported as 26.8 fold.
`TARFYPPAYQIQVFK [P3R]` gave a fold enrichment of 14.7 fold.
`TAPFYPPAYQPQVFK [I11P]` gave a fold enrichment of 0.776 fold.
With `TAPFQPPAYQIQVFK [Y5Q]` the fold enrichment was 1.01 fold.
With `TAIFYPPAYQIQVFK [P3I]` the fold enrichment was 23.8 fold.

Single results of other studies — method: cross-linking MS
`KIF5B (Homo sapiens, UniProt P33176)` — result for interaction screen: “cross-linked” (KLC1 (Homo sapiens, UniProt Q07866); hits only).
Under cross-linked residues, `PDCD11 (Homo sapiens, UniProt Q14690)` is recorded as “Y1701 to K15” (DDX52 (Homo sapiens, UniProt Q9Y2R4); cell fractions; added: DSSO).
Under cross-linked residues, `COX7B (Homo sapiens, UniProt P24311)` is recorded as “K75 to K38” (SMIM20 (Homo sapiens, UniProt Q8N5G0); cell fractions; added: DSSO).
`FAM98A (Homo sapiens, UniProt Q8NCA5)` — result for interaction screen: “cross-linked” (RTRAF (Homo sapiens, UniProt Q9Y224); hits only).

Repeated from above (series 4):
`A390G` — result for “oxyanion analog dissociation constant”: 1.3 µM.
Under “oxyanion analog dissociation constant”, `P430V` is recorded as 661 nM.
Under “oxyanion analog dissociation constant”, `Y207G` is recorded as 660 nM.
`E395G` — result for “oxyanion analog dissociation constant”: 695 nM.
For `L201V`, “oxyanion analog dissociation constant” read 620 nM.
`P493G`: “oxyanion analog dissociation constant” 693 nM.
For `V382A`, “oxyanion analog dissociation constant” read 770 nM.
Under “oxyanion analog dissociation constant”, `K89V` is recorded as 598 nM.
